Published values gathered from unrelated publications.
Numbered parts are unrelated; each lists some results of a single study.
Sequence of UniProt O75716 (whole entry, looked up): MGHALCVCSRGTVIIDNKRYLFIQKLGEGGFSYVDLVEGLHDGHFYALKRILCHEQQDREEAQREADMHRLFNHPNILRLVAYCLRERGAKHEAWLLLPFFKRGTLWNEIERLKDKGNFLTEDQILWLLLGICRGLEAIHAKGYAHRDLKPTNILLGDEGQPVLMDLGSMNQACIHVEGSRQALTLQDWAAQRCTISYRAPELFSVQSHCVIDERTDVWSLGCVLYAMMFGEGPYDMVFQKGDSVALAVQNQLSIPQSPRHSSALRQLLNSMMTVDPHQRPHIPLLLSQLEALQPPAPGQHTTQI
Sequence of UniProt Q9H2X6 (whole entry, looked up): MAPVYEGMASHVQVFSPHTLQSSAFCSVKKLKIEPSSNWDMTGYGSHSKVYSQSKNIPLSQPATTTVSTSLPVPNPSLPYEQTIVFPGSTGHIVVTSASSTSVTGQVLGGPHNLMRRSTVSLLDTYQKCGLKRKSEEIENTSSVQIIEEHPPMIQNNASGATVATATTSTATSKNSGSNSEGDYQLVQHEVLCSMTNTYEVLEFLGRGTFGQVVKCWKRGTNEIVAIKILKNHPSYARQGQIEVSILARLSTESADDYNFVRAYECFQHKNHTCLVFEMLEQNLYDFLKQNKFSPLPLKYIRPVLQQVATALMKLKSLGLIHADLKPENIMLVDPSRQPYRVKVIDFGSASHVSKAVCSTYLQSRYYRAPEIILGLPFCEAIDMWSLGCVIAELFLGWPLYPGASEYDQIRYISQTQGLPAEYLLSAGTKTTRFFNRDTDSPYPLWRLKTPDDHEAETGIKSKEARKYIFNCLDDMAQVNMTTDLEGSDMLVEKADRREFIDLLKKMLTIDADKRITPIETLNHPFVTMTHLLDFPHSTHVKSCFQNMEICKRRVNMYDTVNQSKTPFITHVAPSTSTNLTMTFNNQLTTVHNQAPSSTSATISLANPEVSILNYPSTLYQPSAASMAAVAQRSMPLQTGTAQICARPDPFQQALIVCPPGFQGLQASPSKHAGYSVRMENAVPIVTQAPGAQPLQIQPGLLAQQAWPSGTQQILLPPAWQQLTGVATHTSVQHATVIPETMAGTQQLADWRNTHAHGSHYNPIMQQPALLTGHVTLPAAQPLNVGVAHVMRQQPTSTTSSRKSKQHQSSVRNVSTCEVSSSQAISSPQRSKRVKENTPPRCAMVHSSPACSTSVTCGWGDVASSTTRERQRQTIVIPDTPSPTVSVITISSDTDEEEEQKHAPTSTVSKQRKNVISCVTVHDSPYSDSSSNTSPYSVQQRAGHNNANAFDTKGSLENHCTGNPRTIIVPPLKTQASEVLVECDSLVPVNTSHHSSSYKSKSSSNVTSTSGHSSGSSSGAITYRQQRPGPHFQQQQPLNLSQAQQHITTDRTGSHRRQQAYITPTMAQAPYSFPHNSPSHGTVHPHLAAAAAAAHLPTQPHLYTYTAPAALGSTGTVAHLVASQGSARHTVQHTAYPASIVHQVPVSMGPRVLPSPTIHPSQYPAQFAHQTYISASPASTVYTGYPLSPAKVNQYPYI
Sequence of UniProt O43781 (whole entry, looked up): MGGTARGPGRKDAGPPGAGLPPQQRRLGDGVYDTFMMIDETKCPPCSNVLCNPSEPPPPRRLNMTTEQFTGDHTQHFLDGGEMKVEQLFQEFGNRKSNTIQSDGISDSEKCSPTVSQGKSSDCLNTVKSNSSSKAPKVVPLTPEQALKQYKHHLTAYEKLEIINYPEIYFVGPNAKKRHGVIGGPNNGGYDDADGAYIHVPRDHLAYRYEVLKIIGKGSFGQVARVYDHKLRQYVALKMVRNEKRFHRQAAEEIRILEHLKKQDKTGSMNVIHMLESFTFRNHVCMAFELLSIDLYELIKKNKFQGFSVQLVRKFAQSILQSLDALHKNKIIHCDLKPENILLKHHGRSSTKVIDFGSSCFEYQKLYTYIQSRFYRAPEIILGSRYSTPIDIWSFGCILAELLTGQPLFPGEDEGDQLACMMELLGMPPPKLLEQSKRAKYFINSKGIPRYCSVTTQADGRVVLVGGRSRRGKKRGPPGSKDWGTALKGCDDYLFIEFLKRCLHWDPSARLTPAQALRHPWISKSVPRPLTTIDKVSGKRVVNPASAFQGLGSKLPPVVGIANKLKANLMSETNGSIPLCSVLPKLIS

Block 1 — method: RNA Bind-n-Seq; molecule type: RNA; sample: in vitro; tested at: 365 nM; baseline: no-protein control; reading: higher = stronger binding
Target: RNA binding protein fox-1 homolog 2, RRM domain, GST-SBP tag (RBFOX2, Homo sapiens, UniProt O43251-10, residues 100-194)
Setting: natural RNA segment, single round, ends assumed
Shared flanks, not repeated: GGGAGUUCUACAGUCCGACGAUC … UGGAAUUCUCGGGUGCCAA
Construct (chain): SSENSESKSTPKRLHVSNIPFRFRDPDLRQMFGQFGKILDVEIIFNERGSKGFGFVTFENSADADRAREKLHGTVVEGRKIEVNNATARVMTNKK
Strand | RBNS enrichment (R)
CACGUUAUAGUCAAAUGAGUUAGCUGAUGGUUUCUAGAUUUUCUUCCUCUGAACCAUGAUGCAGUAGGUAAGAAGUUAUUAUGCGUAUAUACAUAUAUACAUUCAUAUAC | 0.503
UGAUUGGUUUGACGUGUUUGGUUCAGUGUCACGCACUGAUACAUGUUCUCUGUAAUUACAUGUCACCACACCAGGCUUUAGUGGCCAGGAGGGAUUUGACCUUGUUCCCA | 0.435
UUUGUUUUCAUAGUUUUGCACUUUUAUAGCCUAUUUUUGAAGAUUAACACAUUUGCAAGAUGAUUGACUCAAUCUUUGCCUAAUCCAAUGAGUGUUACAGAGAGCUUGCU | 0.435
CACACCGGGUUGUAUGGCGUCAGCAGGUGUGAGCUGUCCCUUGCUUCUCUUGUCACACAGUGCCCCUUCCCCACGUGUCCUGUGGCUCCAGCCAUUACAGAGUGAAGGUG | 0.589
AUACUACAUUCAGCUUACCAUAAAUAUUUGUCCUUGAAGGGUUUGAUUUAAUAUUUUCACAGACUAGGCCAUGUGCAAAAUUAGAGUUCCCUGUGUAACCCCAGCCAGCA | 4.35
GCAUAUACCUGAAGGUUAACACUCAGGAUACACAAACCUCUACAGACCUUAGAAUCCCAUCUCUAUUUUCCCAACUGACUGUGACAGGCAUGAGGCACUGUCACUUGCUU | 0.649
AAAUCGUAUGAUUCACCUCAUCUUUAAUAUGCAUUGAAAUAGGUAAUACUAGAUGCAAGUGUUUCCAAAGCAAAAAAGGUGCAAUUUUAAAGAAUACAUAGCCAAAGCAA | 0.314
UGUUAUACUUUGGACAGACAGAGUUUUAAAAAUGGAAUUAUUUUUUCUUUCAUGCCUCUUGUAAUGUUCUGAACAAACUUGAAUGAUGAAAGUAUUAAAGAGAUAUCAGU | 0.464

Block 2 — method: protein-binding microarray; molecule type: double-stranded DNA, one strand shown; sample: in vitro; tested at: 0.8 µM; setting: whole 60-bp probe, no competitor; reading: higher = stronger binding; shared flanks, not repeated: … GTCTTGATTCGCTTGACGCTGCTG
Target: Centromere-binding protein 1, full length, N-terminal tag (CBF1, Saccharomyces cerevisiae, UniProt P17106, residues 1-351)
Sequence of UniProt P17106 (whole entry, looked up): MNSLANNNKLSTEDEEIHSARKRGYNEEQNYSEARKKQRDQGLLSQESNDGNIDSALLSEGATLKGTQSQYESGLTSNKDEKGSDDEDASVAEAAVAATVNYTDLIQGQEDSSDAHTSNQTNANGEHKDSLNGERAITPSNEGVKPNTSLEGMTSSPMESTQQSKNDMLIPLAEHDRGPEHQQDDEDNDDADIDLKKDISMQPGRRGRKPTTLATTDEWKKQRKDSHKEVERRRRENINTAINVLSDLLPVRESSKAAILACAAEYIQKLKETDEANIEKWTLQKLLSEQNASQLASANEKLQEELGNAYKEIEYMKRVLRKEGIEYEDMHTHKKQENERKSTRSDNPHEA
Strand | fluorescence intensity [a.u.]
GAAAAGCTGGCAGGTGACCCGCCGCACCTGCACTAG | 4520
GAACAGATATATACTCAGGTGCTAATGCGAATTTAG | 567
TGTACGAAGCTATATCACCATCATATAGTAGTTAGG | 527
GAATAGGTATACATACATGTGAAAATGTAAGTATAG | 675
CTACCACTTGGGCGTCGGGTGGTGAATCTAATGTTC | 474
CTACAAATTTAGCAAGTCATGACGGCAAATTTCTTC | 618
CTATGTTAAGATTACATCAGCACTAACAAACAATTC | 528
CTAGCCCGTAGAGGACACGTTAATAGAAGACATTTC | 498

Block 3 — read-out: enzyme activity; action: inhibitor; tested at: 0.5 µM; baseline: control
Compound: CN1CCN(c2ccc3nc(-c4c(N)c5c(F)cccc5[nH]c4=O)[nH]c3c2)CC1
target | remaining activity [%]
STK16 (Homo sapiens, UniProt O75716) | 46.3
DYRK3 (Homo sapiens, UniProt O43781) | 103
HIPK2 (Homo sapiens, UniProt Q9H2X6) | 81.5

Block 4 — read-out: ligand displacement; tested at: 10 µM
Target: Alpha-2C adrenergic receptor (ADRA2C, Homo sapiens, UniProt P18825)
Sequence of UniProt P18825 (whole entry, looked up): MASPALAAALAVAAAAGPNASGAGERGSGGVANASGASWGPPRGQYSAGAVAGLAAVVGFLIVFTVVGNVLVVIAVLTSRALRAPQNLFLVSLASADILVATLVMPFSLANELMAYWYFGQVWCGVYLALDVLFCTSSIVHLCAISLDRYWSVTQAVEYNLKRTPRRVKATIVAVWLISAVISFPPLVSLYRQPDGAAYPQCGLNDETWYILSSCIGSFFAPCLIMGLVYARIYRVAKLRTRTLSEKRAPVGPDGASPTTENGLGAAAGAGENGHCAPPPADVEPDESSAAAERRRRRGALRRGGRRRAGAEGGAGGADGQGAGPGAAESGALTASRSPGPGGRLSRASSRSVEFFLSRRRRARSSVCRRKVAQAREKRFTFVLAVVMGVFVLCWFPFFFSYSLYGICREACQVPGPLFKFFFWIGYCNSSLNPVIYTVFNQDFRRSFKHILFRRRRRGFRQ
SMILES | inhibition [%]
C[C@H](c1ccnc(Nc2nc3ccc(-c4cc(N(C)C)ncn4)cc3[nH]2)c1)N1CCN(C(=O)CC(F)(F)F)CC1 | 9.82
O=S(=O)(NC1CCC(c2cc(F)ccc2F)(S(=O)(=O)c2ccc(Cl)cc2)CC1)C(F)(F)F (centres unmarked) | 18.2
c1ccc(N2CCN(Cc3nc4ccccc4[nH]3)CC2)nc1 | 9.49
Cc1ncc(-c2cc(Cl)ccc2F)cc1-n1c(=O)n(CC(N)=O)c2ccccc21 | 17.9
NS(=O)(=O)c1cc(NC(=O)Cc2ccccc2)ccc1Oc1cccc(Cl)c1 | 18.2
CC[C@H](CC(=O)O)n1c(=O)c2ncccc2n(Cc2cn(C)c3cc(C)cc(C)c23)c1=O | 13.8
COCCOc1nc(-c2ccc(Cl)nc2)nc2c1CN(C(=O)c1ncn3ccccc13)CC2 | 1.3
Cn1nc(C(=O)NCc2ccc(C(=O)O)cc2)cc1-c1ccc2[nH]ccc2c1 | -7.92
COc1cc(-c2cn(C3CCc4c(F)cccc4N(CC(F)(F)F)C3=O)nn2)ccc1-n1cnc(C)c1 (centres unmarked) | 38.3
CC(=O)N1CCC(c2ccc(C(=O)NC3=NCCN3)cc2C(F)(F)F)CC1 | 16.3
Cc1c(NC(=O)c2cc(C(N)=O)nc3cc(F)ccc23)c(C(F)(F)F)nn1Cc1ccc(C#N)cc1 | -0.745
CS(=O)(=O)N1CCCC(NC(=O)[C@H](CCC2CCCCC2)NC(=O)c2ccc(CNC(=O)c3cnc4ccccn34)cc2)C1 (some centres unmarked) | 5.25
c1ccc(C2CCN(c3cnc4c(N5CCOCC5)nccn34)CC2)cc1 | 16.5

Excerpt of the above (block 1):
Strand | RBNS enrichment (R)
CACGUUAUAGUCAAAUGAGUUAGCUGAUGGUUUCUAGAUUUUCUUCCUCUGAACCAUGAUGCAGUAGGUAAGAAGUUAUUAUGCGUAUAUACAUAUAUACAUUCAUAUAC | 0.503
AUACUACAUUCAGCUUACCAUAAAUAUUUGUCCUUGAAGGGUUUGAUUUAAUAUUUUCACAGACUAGGCCAUGUGCAAAAUUAGAGUUCCCUGUGUAACCCCAGCCAGCA | 4.35
